Results gathered from unrelated publications.
A part holds a random share of what one study measured. Numbers after ± are the reported error.
Chain of UniProt Q8N752 (whole entry, looked up): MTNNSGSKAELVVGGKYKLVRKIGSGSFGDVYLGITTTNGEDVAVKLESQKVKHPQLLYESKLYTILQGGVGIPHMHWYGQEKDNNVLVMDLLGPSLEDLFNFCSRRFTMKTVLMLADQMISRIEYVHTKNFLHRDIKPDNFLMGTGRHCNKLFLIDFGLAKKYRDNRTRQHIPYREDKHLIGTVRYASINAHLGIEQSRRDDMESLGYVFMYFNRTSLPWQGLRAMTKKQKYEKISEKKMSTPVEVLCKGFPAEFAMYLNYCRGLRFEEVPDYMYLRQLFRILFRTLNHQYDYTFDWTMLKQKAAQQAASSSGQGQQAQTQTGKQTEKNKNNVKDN
Chain of UniProt P06213 (whole entry, looked up): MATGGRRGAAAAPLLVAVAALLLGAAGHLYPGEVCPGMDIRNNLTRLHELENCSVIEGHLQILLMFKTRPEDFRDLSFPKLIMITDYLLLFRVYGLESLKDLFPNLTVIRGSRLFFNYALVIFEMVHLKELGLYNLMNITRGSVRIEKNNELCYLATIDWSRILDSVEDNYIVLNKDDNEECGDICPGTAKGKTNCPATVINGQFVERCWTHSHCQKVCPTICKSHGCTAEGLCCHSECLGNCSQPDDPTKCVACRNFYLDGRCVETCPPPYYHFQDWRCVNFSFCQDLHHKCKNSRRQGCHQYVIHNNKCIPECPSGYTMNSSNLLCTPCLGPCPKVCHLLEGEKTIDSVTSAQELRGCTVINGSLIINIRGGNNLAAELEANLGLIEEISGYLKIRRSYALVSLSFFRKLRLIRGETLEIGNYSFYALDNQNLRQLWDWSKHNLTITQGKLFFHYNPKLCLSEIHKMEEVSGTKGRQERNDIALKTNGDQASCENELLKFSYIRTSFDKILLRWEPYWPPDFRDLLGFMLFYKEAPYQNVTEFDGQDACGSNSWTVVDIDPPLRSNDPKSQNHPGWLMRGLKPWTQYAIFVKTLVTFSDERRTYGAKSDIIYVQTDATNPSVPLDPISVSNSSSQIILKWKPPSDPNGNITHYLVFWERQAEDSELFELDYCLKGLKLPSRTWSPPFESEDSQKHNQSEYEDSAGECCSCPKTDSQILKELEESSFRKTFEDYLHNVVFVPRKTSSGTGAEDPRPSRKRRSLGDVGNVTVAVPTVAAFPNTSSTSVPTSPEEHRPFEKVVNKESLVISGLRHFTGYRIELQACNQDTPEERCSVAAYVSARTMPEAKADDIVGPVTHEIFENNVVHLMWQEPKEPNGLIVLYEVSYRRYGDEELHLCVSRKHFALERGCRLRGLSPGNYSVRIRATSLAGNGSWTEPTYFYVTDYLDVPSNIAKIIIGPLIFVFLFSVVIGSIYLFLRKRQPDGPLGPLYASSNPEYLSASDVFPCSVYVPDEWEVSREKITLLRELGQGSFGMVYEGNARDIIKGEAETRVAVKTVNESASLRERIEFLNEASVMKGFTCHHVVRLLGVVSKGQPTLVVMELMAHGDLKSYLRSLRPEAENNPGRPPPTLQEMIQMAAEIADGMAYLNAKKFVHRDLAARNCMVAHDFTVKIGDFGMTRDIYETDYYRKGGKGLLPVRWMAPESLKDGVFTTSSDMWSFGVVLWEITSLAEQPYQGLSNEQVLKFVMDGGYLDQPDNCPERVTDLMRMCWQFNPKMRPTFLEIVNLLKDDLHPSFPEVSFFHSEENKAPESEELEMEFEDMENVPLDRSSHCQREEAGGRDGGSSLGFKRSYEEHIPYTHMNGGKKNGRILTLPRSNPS
Chain of UniProt P35916 (whole entry, looked up): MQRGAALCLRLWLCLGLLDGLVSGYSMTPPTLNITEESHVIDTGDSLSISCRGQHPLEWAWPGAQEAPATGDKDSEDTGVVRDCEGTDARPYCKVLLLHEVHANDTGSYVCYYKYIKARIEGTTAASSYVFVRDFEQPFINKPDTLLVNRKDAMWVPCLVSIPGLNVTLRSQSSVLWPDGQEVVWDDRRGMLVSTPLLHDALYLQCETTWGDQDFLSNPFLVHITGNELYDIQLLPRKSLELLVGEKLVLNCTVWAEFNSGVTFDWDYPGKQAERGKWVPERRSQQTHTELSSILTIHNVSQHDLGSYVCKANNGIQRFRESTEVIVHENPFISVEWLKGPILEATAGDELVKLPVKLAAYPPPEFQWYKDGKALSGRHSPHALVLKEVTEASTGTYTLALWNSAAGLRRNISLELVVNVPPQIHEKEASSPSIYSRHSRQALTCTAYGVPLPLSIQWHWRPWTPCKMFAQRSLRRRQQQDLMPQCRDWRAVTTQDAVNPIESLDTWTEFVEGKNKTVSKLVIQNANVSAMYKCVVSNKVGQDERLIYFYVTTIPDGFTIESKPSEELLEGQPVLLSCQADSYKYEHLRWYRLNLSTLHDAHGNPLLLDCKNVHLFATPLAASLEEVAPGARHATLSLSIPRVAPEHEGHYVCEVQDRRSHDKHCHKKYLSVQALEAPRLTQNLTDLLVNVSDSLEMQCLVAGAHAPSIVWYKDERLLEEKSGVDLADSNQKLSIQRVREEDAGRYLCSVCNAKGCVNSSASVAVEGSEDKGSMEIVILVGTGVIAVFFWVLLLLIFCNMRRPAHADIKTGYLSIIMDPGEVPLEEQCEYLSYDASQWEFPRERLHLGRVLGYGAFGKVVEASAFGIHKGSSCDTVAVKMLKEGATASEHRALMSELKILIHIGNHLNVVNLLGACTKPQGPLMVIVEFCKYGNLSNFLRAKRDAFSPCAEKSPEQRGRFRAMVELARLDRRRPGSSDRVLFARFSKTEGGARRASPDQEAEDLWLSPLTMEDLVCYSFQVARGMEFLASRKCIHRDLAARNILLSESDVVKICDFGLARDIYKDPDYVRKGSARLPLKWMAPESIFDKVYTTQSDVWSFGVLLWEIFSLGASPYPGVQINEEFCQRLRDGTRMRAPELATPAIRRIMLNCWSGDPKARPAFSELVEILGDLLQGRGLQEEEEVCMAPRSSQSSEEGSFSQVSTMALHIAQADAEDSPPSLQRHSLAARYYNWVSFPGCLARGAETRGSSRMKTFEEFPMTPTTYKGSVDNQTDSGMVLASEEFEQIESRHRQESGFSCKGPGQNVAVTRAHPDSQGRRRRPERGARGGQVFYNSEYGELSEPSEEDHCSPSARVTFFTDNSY
Chain of UniProt P51817 (whole entry, looked up): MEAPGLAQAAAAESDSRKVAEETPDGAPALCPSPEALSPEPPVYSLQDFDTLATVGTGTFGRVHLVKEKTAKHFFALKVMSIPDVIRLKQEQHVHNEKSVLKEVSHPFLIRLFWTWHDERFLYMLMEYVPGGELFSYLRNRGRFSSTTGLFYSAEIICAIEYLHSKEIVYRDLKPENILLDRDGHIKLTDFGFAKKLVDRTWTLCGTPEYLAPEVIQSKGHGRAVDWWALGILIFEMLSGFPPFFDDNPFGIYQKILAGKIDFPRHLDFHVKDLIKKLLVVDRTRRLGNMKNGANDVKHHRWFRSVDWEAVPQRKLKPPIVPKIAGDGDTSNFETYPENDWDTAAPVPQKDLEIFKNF
Chain of UniProt P16591 (whole entry, looked up): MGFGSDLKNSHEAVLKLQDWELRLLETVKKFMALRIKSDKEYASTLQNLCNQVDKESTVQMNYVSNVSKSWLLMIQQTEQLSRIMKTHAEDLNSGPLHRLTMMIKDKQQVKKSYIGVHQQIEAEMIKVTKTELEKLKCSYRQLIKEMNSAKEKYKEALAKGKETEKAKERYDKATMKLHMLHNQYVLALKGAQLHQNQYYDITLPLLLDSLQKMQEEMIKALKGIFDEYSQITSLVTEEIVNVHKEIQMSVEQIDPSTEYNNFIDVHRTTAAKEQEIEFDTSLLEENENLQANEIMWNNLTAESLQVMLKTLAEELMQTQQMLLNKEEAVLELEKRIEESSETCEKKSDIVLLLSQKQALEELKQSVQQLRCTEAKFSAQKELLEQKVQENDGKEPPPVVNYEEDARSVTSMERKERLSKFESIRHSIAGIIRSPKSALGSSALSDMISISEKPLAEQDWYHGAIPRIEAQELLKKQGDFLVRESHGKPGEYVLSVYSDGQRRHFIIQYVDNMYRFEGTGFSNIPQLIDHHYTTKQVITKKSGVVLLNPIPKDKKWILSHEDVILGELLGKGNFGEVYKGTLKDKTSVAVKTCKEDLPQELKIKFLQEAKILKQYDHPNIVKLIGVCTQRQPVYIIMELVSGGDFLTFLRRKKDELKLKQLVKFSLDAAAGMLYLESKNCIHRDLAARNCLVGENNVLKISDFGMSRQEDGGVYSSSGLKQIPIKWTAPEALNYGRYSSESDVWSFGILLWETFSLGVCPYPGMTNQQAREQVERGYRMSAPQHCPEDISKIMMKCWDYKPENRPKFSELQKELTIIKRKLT
Chain of UniProt P27448 (whole entry, looked up): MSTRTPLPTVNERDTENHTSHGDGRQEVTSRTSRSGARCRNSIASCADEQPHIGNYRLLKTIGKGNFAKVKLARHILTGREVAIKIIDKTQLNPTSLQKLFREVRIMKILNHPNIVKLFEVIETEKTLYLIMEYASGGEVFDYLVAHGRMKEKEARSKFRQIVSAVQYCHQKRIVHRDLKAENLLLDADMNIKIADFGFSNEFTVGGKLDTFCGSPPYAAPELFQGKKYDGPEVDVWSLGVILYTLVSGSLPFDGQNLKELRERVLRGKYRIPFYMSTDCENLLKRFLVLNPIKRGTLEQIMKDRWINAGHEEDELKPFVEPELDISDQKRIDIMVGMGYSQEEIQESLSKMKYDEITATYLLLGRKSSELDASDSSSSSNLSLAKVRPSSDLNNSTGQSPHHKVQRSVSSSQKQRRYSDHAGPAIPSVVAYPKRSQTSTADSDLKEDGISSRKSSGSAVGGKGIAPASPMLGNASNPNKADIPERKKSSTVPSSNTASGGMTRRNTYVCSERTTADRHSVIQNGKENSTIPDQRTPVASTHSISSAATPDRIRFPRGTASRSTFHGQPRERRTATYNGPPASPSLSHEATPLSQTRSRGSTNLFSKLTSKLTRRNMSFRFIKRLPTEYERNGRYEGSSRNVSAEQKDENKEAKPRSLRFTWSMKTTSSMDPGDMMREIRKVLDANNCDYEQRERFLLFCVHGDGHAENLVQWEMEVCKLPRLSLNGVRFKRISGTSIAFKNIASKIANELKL

Set 1 — species: mouse; matrix: microsomes or S9; tested at: 2 µM; time: 0.5 h
SMILES	remaining compound
CCC(CNC(=O)CCOCC(C)C)NC(=O)CCOCC(C)C (centres unmarked)	8.82%
Cc1oc(=O)n(Cc2cc(C(N)=O)oc2C(C)(C)C)c1C	76.4%
CCc1ccccc1NC(=O)NCCNc1nc(C)cc(N2CCCCC2)n1	0.699%
O=C(c1ccccc1)c1cccc2c1N(C(=O)c1ccccc1)CC21CCCCC1	0.652%
CCCNc1nc(C)cc(=O)n1Cc1ccc(-c2ccccc2-c2nnn[nH]2)cc1	0.396%
CCN(CC)c1ccc(-c2nnc(-c3ccc(N(CC)CC)cc3)o2)cc1	68.9%

Set 2 — cell line: HEK293 RAS-independent; read-out: cell growth; method: CellTiter-Glo
Compound	IC50
CC(=O)N1CCN(c2nc(OC[C@@H]3CCCN3C)nc3c2CCN(c2cccc4cccc(Cl)c24)C3)C[C@@H]1CC#N	2300 nM
CN1CCC[C@H]1COc1nc2c(c(N3CCN(S(C)(=O)=O)[C@@H](CC#N)C3)n1)CCN(c1cccc3cccc(Cl)c13)C2	2100 nM
CC(C)C(=O)N1CCN(c2nc(OC[C@@H]3CCCN3C)nc3c2CCN(c2cccc4cccc(Cl)c24)C3)C[C@@H]1CC#N	4900 nM

Set 3 — SMILES: CCC(=O)Nc1ccc2ncnc(Nc3cccc(Br)c3)c2c1; read-out: enzyme activity; action: inhibitor; tested at: 0.5 µM; baseline: control
target	remaining activity [%]
Insulin receptor (INSR, Homo sapiens, UniProt P06213)	101
FYN (Homo sapiens, UniProt P06241)	107
PASK (Homo sapiens, UniProt Q96RG2)	88.7
PRKX (Homo sapiens, UniProt P51817)	95.7
FER (Homo sapiens, UniProt P16591)	95.6
NLK (Homo sapiens, UniProt Q9UBE8)	95.9
ITK (Homo sapiens, UniProt Q08881)	89.7
MATK (Homo sapiens, UniProt P42679)	93.4
TAOK3 (Homo sapiens, UniProt Q9H2K8)	89.2
PKN1 (Homo sapiens, UniProt Q16512)	101
ALK (Homo sapiens, UniProt Q9UM73)	83.1
LIM domain kinase 1 (LIMK1, Homo sapiens, UniProt P53667)	88.7
CDC42BPA (Homo sapiens, UniProt Q5VT25)	101
FLT4 (Homo sapiens, UniProt P35916)	91.5
STK25 (Homo sapiens, UniProt O00506)	102
NEK11 (Homo sapiens, UniProt Q8NG66)	103
Cyclin-dependent kinase 3, with cyclin E (CDK3, Homo sapiens, UniProt Q00526)	86.5
FGR (Homo sapiens, UniProt P09769)	93.2
AKT1 (Homo sapiens, UniProt P31749)	95.8
MARK3 (Homo sapiens, UniProt P27448)	86.1
HIPK1 (Homo sapiens, UniProt Q86Z02)	104

Set 4 — method: competition with immobilised ligand; tested at: 1 µM
Structure (SMILES): COc1ccc2c(c1)O[C@@H](c1ccc(OC)c(OC)c1)C[C@H]2NC(=O)C1(c2ccc3c(c2)OC(F)(F)O3)CC1
target	test	remaining binding [%]
TEC (Homo sapiens, UniProt P42680)	binding	89
DCLK2 (Homo sapiens, UniProt Q8N568)	cell-free assay	86
MAPK13 (Homo sapiens, UniProt O15264)	cell-free assay	97
Macrophage colony-stimulating factor 1 receptor, autoinhibited (CSF1R, Homo sapiens, UniProt P07333)	cell-free assay	82
PIP5K1C (Homo sapiens, UniProt O60331)	cell-free assay	92
NEK3 (Homo sapiens, UniProt P51956)	cell-free assay	76
Aurora kinase B (AURKB, Homo sapiens, UniProt Q96GD4)	cell-free assay	84
CDK15 (Homo sapiens, UniProt Q96Q40)	cell-free assay	100
MAK (Homo sapiens, UniProt P20794)	cell-free assay	93
CLK2 (Homo sapiens, UniProt P49760)	cell-free assay	96
CSNK1A1L (Homo sapiens, UniProt Q8N752)	cell-free assay	100

Other studies, line by line
SMILES	target or system	system	conditions	quantity	result
CC(C)n1cnc(-c2ccc(F)cc2)c1-c1ncc(C(=O)Nc2ccc(N3CCN(C)CC3)cc2)[nH]1		IPF patients	30 mg once daily, adverse event	Cholecystitis incidence	0%
OCCN1CCN(CCCN2c3ccccc3Sc3ccc(Cl)cc32)CC1		mouse, serum	dose not given	serum alkaline phosphatase	36.5 ± 9.2 U/L
CC(=O)Oc1c(C)c(C)c2c(c1C)CCC(C)(CCC[C@H](C)CCC[C@H](C)CCCC(C)C)O2 (some centres unmarked)	A-375		100 µM, 60 h	viability	106%

Repeated from above (set 3):
target	remaining activity [%]
NLK (Homo sapiens, UniProt Q9UBE8)	95.9
Cyclin-dependent kinase 3, with cyclin E (CDK3, Homo sapiens, UniProt Q00526)	86.5
PKN1 (Homo sapiens, UniProt Q16512)	101
FER (Homo sapiens, UniProt P16591)	95.6
